Measurements from different studies.
A part holds a random share of what one study measured.

Block 1
Target: Histone acetyltransferase KAT6A, winged helix 1, GST fusion (KAT6A, Homo sapiens, UniProt Q92794, residues 1-85)
Method: protein binding microarray
Molecule type: double-stranded DNA, one strand shown
Sample: in vitro
Tested at: not given
Setting: 8-mer, flanks averaged, mean of 2 arrays, mostly near background
Relative to: not given
Reading: higher = stronger binding
Residues (chain): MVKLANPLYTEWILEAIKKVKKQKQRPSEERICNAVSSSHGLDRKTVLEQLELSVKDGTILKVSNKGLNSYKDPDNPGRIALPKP
Strand | E-score
AGCCCCTG | -0.0728
CAGGCTGG | -0.154
AGTACTAT | -0.119
GTCTGCTA | -0.272
CTAGAGAG | -0.23
ACGGAGAC | 0.186
CACTTCCA | -0.0655
ATGAATTA | -0.123
GTACTGGA | -0.0825
AAGTCTAC | -0.115
CATCACCA | -0.111
ACGCCGGC | 0.424
AAAGGCTG | -0.175
AAACTCCG | -0.0785
GCGCAACC | 0.274
AAATATGA | -0.282
ACTAGTGC | 0.111
AGGAATAC | -0.195
ATCTACCA | -0.288
GCAGAACC | 0.0478

Block 2
Target: Sal-like protein 4, full length isoform B (SALL4, Homo sapiens, UniProt Q9UJQ4-2, residues 1-616)
Method: universal PBM
Molecule type: double-stranded DNA, one strand shown
Sample: in vitro
Tested at: not given
Setting: 8-mer, flanks averaged, mean of replicates
Reading: higher = stronger binding
Strand | E-score
GACGGGAC | -0.281
CGGTGGGA | -0.318
CTCACACA | -0.0151
AGTCTTGC | 0.0522
ATCGCAAA | 0.11
ATGCATCG | 0.0356
TACTGCAA | 0.139
CTGTAGCA | 0.0342
GATGAATA | 0.282
CCTACCTC | -0.256
AAGAATAT | 0.285
ATGGTTAA | 0.186
AGCGGTCG | -0.288
AACAACGC | 0.115
AGGCTACC | -0.219
CGCTAGTC | -0.226
AAGGTGCG | -0.202
ATTAGACA | 0.268
ACGCTCAA | -0.0823
ATGTACGG | 0.0673
GTATGGGA | -0.0684
TTATCCAA | 0.3
AGTTAAAC | 0.09
ATTCCCTC | -0.0846
CCGTGGTC | -0.348

Block 3
Target: RNA binding protein fox-1 homolog 2, RRM domain, GST-SBP tag (RBFOX2, Homo sapiens, UniProt O43251-10, residues 100-194)
Method: RNA Bind-n-Seq
Molecule type: RNA
Sample: in vitro
Tested at: 365 nM
Setting: natural RNA segment, single round, ends assumed
Relative to: no-protein control
Reading: higher = stronger binding
Shared flanks, not repeated: GGGAGUUCUACAGUCCGACGAUC … UGGAAUUCUCGGGUGCCAA
Construct (chain): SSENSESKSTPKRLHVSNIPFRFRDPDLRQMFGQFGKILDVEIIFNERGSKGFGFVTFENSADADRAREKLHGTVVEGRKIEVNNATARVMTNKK
Strand | RBNS enrichment (R)
UCAGGGGAGAAGGAGGCCACUGGAAAAUUAUUUCCCUAAGUGCAGGCUGUUGACUGCGUAUGCCAAAAAGGGACAGGAGGCAUGGGAUAGCAGGUCUGGUGACACAGCUA | 1.7
CAAGCCAUUCUCCAAGGGGGCCUGGCACAGUAAGCACUUCAAGCAUGAAUUGGGUAAGCUGGUUUGUUUGACUAGGAAACGGUUCCACAGAGUAUUUGCCACAAGAGGAG | 23.1
AGCCUGGUCUACAGAGUAAGUUCUAGGACCAAACCCAAAAAAUAAAGCAAAAACAAAAGGAGGUAUUAAGUCCAGUUUCCAGGCUACUUGCUGUGUACAUCAAGAAAAUU | 0.297
GCUGUGCCAACCUGUUCUUAGAGUGUAGCUGUAAGGGCAGUGCCCAUGUGUACAUUCUGCCUAGAGUGUAGCCUAAAGGGCAGGGCCCACGUGUAUAGUAUCUGUAUAUA | 0.197
CCUUGACAUGAGGACCAGCAAGUUUAUUCUUUUCAUUUUCAGUGAUGUUGGGAAUGGACUGGGUUUUAAAAGGGAGCUUGAAGAGGGAAUGUUUGACAGUCACAGAAGGU | 1.04
GUGGCGACUGCUCUUAUUUAAGGAAACCACCUUGGGUCUGAGAGGUGGAGAGGCCGUGGGAUUAAGCACAAUAGGAGGCGCAGCUCCUGCUUCUACCGUUAGGCGCUGCA | 1.4
CCACAGUCAGAACAUGCAAACUUUUUUGAAGAAAUUACUUGAAUAAGUAGUUUUCAUGUUUUCAAUAUGCAGUUUUGAAAAUGAGGAUUCACCUAGACUUUUUUAGAUUU | 0.641
GCUCUUUGCAGAUGCCUAUACUUCCAACACUACCAUGUCCACAAACCACCCUGGGGGAGGGCCCUUCCAAAGGGAGGCUUGCUAGUUUCAGCGUCUAGCAGUUGGGUCCU | 0.428
GAUAGUUGACCUCUGAGUCAGUGAGACCAACAAUGAGUGGUGGCCCCAGGCUUUGUUUCCUUUGCUCGUGCCUUAUACUCACAUAUAUCCAAUAUAACCCAUGGUGUUAA | 0.474
GUGUAAGAUCACACAGUUGUCAGAGUCAGGAUUCAAAUCUAGUUCUAACUCCAAAGCUCUCCACACUAACAUUGUUUUGCUUAUUAUUGCUCCAAAGAUAAUUACCCCAA | 0.73
UGCACUUGGGUUCCCGCCCAGGAAGGCCUUUUGCAAGAAGGAGAGGAAUGGGGGAGAGGACGUGAGGGACCACCCCCACCCACACAGCUGCCGCAGCAUCUCACACCCCG | 0.433
UGCAAGUGAACUUGGGAGGGGGCACGGGCCUGUAGAUCAGGGAUAGCGCUGUUGAUCCCCUCUCUGUGGCUCCAACCCGUUGGGUCCCUUGCUGCAAACCCAUGAAGCUG | 0.434

Block 4
Target: Ras GTPase-activating protein-binding protein 1, full length (G3BP1, Homo sapiens, UniProt Q13283)
UniProt Q13283, sequence (whole entry, looked up): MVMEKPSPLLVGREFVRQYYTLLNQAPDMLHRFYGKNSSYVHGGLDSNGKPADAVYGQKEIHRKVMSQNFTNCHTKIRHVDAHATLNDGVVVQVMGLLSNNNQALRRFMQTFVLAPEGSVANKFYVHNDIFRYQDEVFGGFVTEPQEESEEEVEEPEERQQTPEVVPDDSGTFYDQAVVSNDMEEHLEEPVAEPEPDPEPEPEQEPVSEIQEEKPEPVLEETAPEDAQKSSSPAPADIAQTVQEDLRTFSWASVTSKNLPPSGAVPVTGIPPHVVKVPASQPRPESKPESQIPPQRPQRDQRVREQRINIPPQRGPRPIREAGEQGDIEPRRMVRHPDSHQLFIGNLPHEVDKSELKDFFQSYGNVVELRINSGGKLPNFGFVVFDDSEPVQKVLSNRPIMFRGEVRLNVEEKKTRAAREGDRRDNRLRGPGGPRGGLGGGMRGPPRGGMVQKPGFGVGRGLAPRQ
Method: RNA Bind-n-Seq
Molecule type: RNA
Sample: in vitro
Tested at: 200 nM
Setting: whole 134-nt RNA, ends assumed
With: 150 mM KCl
Relative to: input library
Reading: higher = stronger binding
Shared flanks, not repeated: GGGAGUUCUACAGUCCGACGAUC … UGGAAUUCUCGGGUGUCAAGG
Strand | log2 enrichment
UGUGCUACACAUCGUAUGUACCGAAUCGGGCCCCCCCGGGCCCCCCCGGGGCCCCCCCGGGGAAAGUAUUAUGUUACGCCGUUCGGAUCU | -1.8
CCUCAAGUCCUGUGCUACACAUCGUAUGUACCGAAUCGGUUGGUUGGGUUGGGAAAGUAUUAUGUUACGCCGUUCGGAUCUGCACUUCCA | -0.317
AAGUCCUGUGCUACACAUCGUAUGUACCGAAUCGGGGAAAAGGGGAAAAGGAAAAGGAAAGUAUUAUGUUACGCCGUUCGGAUCUGCACU | -0.49
AAGUCCUGUGCUACACAUCGUAUGUACCGAAUCAAAUUUAAAUUUUUAAAUUUAAAAAAGUAUUAUGUUACGCCGUUCGGAUCUGCACUU | -1.86
UCCUGUGCUACACAUCGUAUGUACCGAAUCAAAUUUUUUUAAAUUUUUAAACCCCCAAAAAAGUAUUAUGUUACGCCGUUCGGAUCUGCA | 0.0795
UCAAGUCCUGUGCUACACAUCGUAUGUACCGAAUCGGUGGAAAAAAAGGAAAGGAAAGUAUUAUGUUACGCCGUUCGGAUCUGCACUUCC | -0.831
AUUCUUCAUUGAGGGUGAGGAUCUCCCAAUGGGAGACUGCUCUGAAAAGAGCAUGUGCUUUUUGAAUUAGAUAACCUACUAUAAUCAUGG | -0.861
UAACUUUAGAGGAGGAUCUGAUGGAUAUGGCAGUGGACGUGGAUUUGGGGAUGGCUAUAAUGGGUAUGGAGGAGGACCUGGAGCUGGCAA | 0.184
UCCUGUGCUACACAUCGUAUGUACCGAAUCGGGGUUUUUGGUUUUUGGGGUUUUUGGGGAAAGUAUUAUGUUACGCCGUUCGGAUCUGCA | -0.0606
UGCGAUAUGAACGUUCACAAGCAAUGCGUCAUCAAUGUCCCCAGCCUCUGCGGAAUGGAUCACACUGAGAAGAGGGGGCGGAUUUACCUA | -1.21
